Measurements gathered from unrelated publications.
Numbered parts are unrelated; each lists some results of a single study. Changes are numbered by the printed parent chain.

Sample 1 — method: protein-binding microarray; molecule type: double-stranded DNA, one strand shown; medium: in vitro; concentration: 0.8 µM; notes: whole 60-bp probe, no competitor; reading: higher = stronger binding; all sequences stand within: … GTCTTGATTCGCTTGACGCTGCTG
Target: Centromere-binding protein 1, full length, N-terminal tag (CBF1, Saccharomyces cerevisiae, UniProt P17106, residues 1-351)
UniProt P17106, sequence (whole entry, looked up): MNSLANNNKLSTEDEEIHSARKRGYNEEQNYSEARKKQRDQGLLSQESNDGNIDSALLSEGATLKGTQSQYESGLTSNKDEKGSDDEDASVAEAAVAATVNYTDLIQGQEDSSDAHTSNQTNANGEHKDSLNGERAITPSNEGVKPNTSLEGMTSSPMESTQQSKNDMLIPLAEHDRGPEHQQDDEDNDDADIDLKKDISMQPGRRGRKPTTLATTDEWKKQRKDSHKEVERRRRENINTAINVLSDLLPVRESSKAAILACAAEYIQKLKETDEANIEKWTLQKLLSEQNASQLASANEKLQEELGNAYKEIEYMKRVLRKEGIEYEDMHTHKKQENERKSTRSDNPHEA
Strand	fluorescence intensity [a.u.]
GAATAAGAATTGTTTAACGTGCTTTTATTAATGTAG	553
CTAAAGTCATTTACCCAGGCGTGATTATAAATTTTC	1250
CCTAACTACTATAACCACGAGACATAGCTTCGTACA	738
CTAAGGTGGTGTTTCCTCGTGTCCGTATCAAGCTTC	594
GAATGCCAAGTTAAAGGTGACAAAATAGCGCCTTAG	493
GAATATAAATCCCATCTGATGATGATCTGAAAATAG	612

Sample 2 — target: MAFG, bZIP domain (human); method: DHFR protein complementation; medium: yeast; reference: wild-type JUN-FOS pair; reading: higher = stronger binding
Notes: single substitutions, most at no-binding floor
Starting sequence: JUN, bZIP domain (human); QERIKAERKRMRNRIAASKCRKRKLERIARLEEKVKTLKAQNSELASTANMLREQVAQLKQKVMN; partner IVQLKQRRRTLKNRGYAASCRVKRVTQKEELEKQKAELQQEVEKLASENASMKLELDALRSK
Change	binding fitness [natural log]
V56R	-1.53
R30P	-1.46
Q41E	-1.24
I28R	-1.34

Sample 3 — target: CCNF, cyclin fold, Cln2 fusion (human); method: yeast growth competition, sequencing; medium: yeast; notes: strong parent motif; reference: not given; reading: higher = stronger binding
Starting sequence: WEE1 docking peptide (human); HKTFRKLRLFDTP; partner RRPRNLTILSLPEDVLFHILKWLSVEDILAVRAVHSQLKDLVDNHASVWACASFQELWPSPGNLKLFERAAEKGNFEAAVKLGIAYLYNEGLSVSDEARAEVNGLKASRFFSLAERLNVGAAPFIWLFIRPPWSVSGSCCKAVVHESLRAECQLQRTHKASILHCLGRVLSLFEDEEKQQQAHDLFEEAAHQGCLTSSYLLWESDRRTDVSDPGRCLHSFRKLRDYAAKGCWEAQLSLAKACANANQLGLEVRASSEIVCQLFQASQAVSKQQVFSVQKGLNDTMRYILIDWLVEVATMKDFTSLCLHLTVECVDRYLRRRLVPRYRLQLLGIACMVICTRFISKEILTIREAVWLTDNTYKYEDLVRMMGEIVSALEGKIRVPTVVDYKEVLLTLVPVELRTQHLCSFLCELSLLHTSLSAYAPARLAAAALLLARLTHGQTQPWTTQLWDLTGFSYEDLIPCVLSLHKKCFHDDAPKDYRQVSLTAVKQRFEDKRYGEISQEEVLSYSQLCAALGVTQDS
Change	normalised enrichment score
HKTFRKLRLFDRP [T12R]	1.92
HKTFRKERLFDTP [L7E]	0.853
HKTFRKLRLSDTP [F10S]	1.58
HKEFRKLRLFDTP [T3E]	0.608
HKTFRKLRLFDAP [T12A]	2.5
HKTFRKLRLFDTM [P13M]	3.03
HETFRKLRLFDTP [K2E]	1.91
HKTFRKVRLFDTP [L7V]	1.2

Sample 4 — method: Sort-seq; refers to: YFP reporter; medium: E. coli; notes: PhoQ-PhoP variant library; together with: 10 µM Mg2+; reference: high Mg2+ state; reading: higher = stronger signaling
Molecule: PhoQ, residues 284 288 289 292 302 303 TLMATV
target	fold induction
PhoP, residues 12 14 15 18 19 QYFSL (Escherichia coli, UniProt P23836)	2.16
PhoP, residues 12 14 15 18 19 NYFRM (Escherichia coli, UniProt P23836)	10
PhoP, residues 12 14 15 18 19 TQALL (Escherichia coli, UniProt P23836)	3.05

Repeated from above (sample 4):
target	fold induction
PhoP, residues 12 14 15 18 19 NYFRM (Escherichia coli, UniProt P23836)	10
PhoP, residues 12 14 15 18 19 TQALL (Escherichia coli, UniProt P23836)	3.05
